# Published values pooled from the literature.
# Every numbered part comes from another study and shows a few of its results, in no order.

# Study 1 — technique: protein binding microarray; molecule type: double-stranded DNA, one strand shown; matrix: in vitro; tested at: not given; reference: not given; direction: higher = stronger binding
# Target: Histone acetyltransferase KAT6A, both winged helices, GST fusion (KAT6A, Homo sapiens, UniProt Q92794, residues 1-181)
# Notes: 8-mer, flanks averaged, mean of 2 arrays, mostly near background
# Construct (chain): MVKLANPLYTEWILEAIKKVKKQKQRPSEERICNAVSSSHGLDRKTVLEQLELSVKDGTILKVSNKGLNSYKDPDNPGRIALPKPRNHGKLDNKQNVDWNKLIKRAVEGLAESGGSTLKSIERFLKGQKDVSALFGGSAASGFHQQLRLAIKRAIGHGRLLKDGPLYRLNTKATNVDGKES
Strand,E-score
GAGCGGGA,0.259
TACGAACA,-0.00543
CATGGACG,0.113
CAGTAATG,-0.101
AGCTACAC,-0.00845
TAGCTGCA,-0.117
CTAACGCC,0.127
TTAAGTAA,-0.201
AACTTGAT,-0.00954
GTGGAGGA,-0.12
CGGGGCTC,0.0353
CTACTTGC,-0.0609
CTGTATTA,0.032
AACTTACC,-0.0949
ATTTCACG,0.138
AATCTGGA,0.0454
GCTGGTAA,-0.0457
TAGTACAA,-0.0313
TACAAGGA,-0.0127
AGACTGAC,-0.0158
CGTCAAAA,0.154
TGCGCCAA,0.148
GTAGCTCA,-0.0568
CATAGCTA,-0.163
GGTAGATA,0.0115

# Study 2 — technique: universal PBM; molecule type: double-stranded DNA, one strand shown; matrix: in vitro; tested at: not given; direction: higher = stronger binding
# Target: Sal-like protein 4, full length isoform B (SALL4, Homo sapiens, UniProt Q9UJQ4-2, residues 1-616)
# Notes: 8-mer, flanks averaged, mean of replicates
Strand,E-score
GCTAGTAC,-0.0115
ATAGGGAG,0.00271
ACTAAAGT,0.0559
GAATATGC,0.237
CCCTACAA,0.0462
CAGCTAAA,-0.00334
CGTATAAC,0.176
ACTATGTA,0.199
AGTCATAA,0.35
CCTTATCG,0.175
CCTTTTCG,0.109
TGACTACA,0.224
AACTGATG,0.0891
CAGGCAGA,0.00097
GGCGTGAC,-0.257
GATTCTCA,0.1
CCCGAAGG,-0.158
CCTAATAC,0.174
AAGCGTGC,-0.0286
CCGACCTC,-0.227
CACGGCGA,-0.232
CCCCTAAG,-0.207
GAACAACC,0.0845
ACCCCTAC,-0.118
GTCGTGCA,-0.127

# Study 3 — technique: RNA Bind-n-Seq; molecule type: RNA; matrix: in vitro; tested at: 200 nM; notes: whole 134-nt RNA, ends assumed; added: 150 mM LiCl; reference: input library; direction: higher = stronger binding; all molecules: 7-deaza-guanosine replaces G
# Target: Ras GTPase-activating protein-binding protein 1, full length (G3BP1, Homo sapiens, UniProt Q13283)
# UniProt Q13283, sequence (whole entry, looked up): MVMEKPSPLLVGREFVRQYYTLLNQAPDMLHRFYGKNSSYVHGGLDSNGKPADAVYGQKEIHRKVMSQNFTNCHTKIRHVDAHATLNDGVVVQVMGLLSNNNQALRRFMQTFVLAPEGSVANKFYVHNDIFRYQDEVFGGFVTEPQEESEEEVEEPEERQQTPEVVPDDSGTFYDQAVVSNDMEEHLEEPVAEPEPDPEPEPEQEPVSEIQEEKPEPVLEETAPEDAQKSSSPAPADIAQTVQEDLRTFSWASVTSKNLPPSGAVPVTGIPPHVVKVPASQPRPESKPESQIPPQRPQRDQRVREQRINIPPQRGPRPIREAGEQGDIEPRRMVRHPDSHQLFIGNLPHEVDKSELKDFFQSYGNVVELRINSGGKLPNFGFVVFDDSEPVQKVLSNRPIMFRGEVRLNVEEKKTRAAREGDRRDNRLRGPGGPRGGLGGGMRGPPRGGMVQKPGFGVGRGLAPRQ
# Constant ends, left off below: GGGAGUUCUACAGUCCGACGAUC … UGGAAUUCUCGGGUGUCAAGG
Strand,log2 enrichment
CUCAAGUCCUGUGCUACACAUCGUAUGUACCGAAUCGGGUUGGUUGGGGUUGGAAAGUAUUAUGUUACGCCGUUCGGAUCUGCACUUCCA,0.24
GCAGGAAGUAACAACAAAUGGAAAUGCUUCGGAUAGUGGCAGGGGUGGGGGUUGCUAAGGAAAGGGUGGGAUGGGAGUGGGUAAAGAGUU,-0.205
UCCUCAAGUCCUGUGCUACACAUCGUAUGUACCGAAUCGGGCGGGCGGCGGAAAGUAUUAUGUUACGCCGUUCGGAUCUGCACUUCCAGC,1.16
UCAAGUCCUGUGCUACACAUCGUAUGUACCGAAUCGGGCCGGGGCCGGCCGGGGAAAGUAUUAUGUUACGCCGUUCGGAUCUGCACUUCC,0.493
GUCCUGUGCUACACAUCGUAUGUACCGAAUCGGAAAAAGGGGAAAAAGGGGAAAAAGGGAAAGUAUUAUGUUACGCCGUUCGGAUCUGCA,0.0327
GCAGGAAGGAAAAACAAAUGGAAAUGCUUCGGAUAGUGGCAGGGGUGGGGGUUGCUAAGGAAAGGGUGGGAUGGGAGUGGGUAAAGAGUU,-0.111
UGGCCCUGGUGGAAUGCGGGGAGGAAGAGGUGGCCUCAUGGAUCGUGGUGGUCCCGGUGGAAUGUUCAGAGGUGGCCGUGGUGGAGACAG,0.542
AAGUCCUGUGCUACACAUCGUAUGUACCGAAUCGGGGAGGGGAGGGGUUUUUGGGGAAAGUAUUAUGUUACGCCGUUCGGAUCUGCACUU,0.463
UGGCCCUGGUGGCAUGCGGGGAGGAAGAGGUGGCCUCAUGGAUCGUGGUGGUCUCGGUGGAAUGUUCAGAGGUGGCCGUGGUGGAGACAG,0.496
UGGCCCUGGUGGCAUGCGGGCAGGAAGAGGUGGCCUCAUGGAUCGUGGUGGUCCCGGUGGAAUGUUCAGAGGUGGCCGUGGUGGAGACAG,0.322
CUGUGCUACACAUCGUAUGUACCGAAUCGGCCCCCCCGGGCCCCCCCGGGGCCCCCCCGGGAAAGUAUUAUGUUACGCCGUUCGGAUCUG,-0.339

# Study 4 — technique: RNA Bind-n-Seq; molecule type: RNA; matrix: in vitro; tested at: not given; reference: input RNA pool; direction: higher = stronger binding
# Target: RING finger protein unkempt homolog, zinc fingers 1-6, GST-SBP tag (UNK, Homo sapiens, UniProt Q9C0B0, residues 30-357)
# UniProt Q9C0B0, sequence (30-357, looked up): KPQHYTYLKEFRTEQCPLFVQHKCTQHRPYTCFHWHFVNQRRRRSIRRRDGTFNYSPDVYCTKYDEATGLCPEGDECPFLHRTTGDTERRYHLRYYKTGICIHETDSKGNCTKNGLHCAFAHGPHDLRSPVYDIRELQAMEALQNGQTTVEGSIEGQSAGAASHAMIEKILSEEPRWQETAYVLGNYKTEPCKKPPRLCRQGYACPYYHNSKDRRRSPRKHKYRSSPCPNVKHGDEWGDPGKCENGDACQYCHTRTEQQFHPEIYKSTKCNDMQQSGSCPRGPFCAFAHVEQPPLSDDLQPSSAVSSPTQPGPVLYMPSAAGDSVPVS
# Notes: RNA with constant flanks, human-mouse chimeric sites, ends assumed
# Constant ends, left off below: GGGAGUUCUACAGUCCGACGAUC … CAACAGAGGAUUGAGCAUCA
Strand,bound/input enrichment
AACAGAUUGUCUUUAAGGUCAACGUAGGAGAAUGCUGGGGUGAUCAUUGUUGCCCAUGUGCCUUCUGACUGAGCUUUAAUGCUGUUCAUCCUUGAUGCUUUCCUUCACUCCAGAAUUGUU,0.11 ratio
AUAUUUCAUAUUGCAAAGAUGUUUACAAGUAUUUUAAUUUAAGUUCAGUGAACUUUUUUGUAGCUGGGUUAAAUCUUUUUAUUUUAGUAUGGCCUUAAUGGCAAAGAACACUGUAUUUUU,3.49 ratio
UCUUUAAAAAAAAAAUUACCUUUUCUGCAUAUUAUAGCCCUCCCAUAGAUCCACGUUCAAGCUCAAAGAGCAAAGGCUCCGCAAACAGCUCAAACAUCUGAUGAAGAAAGAUUUCUGAGA,3.15 ratio
UCUUAACUUAUUCAUUUAACUUAUUUUUAGCACUUAGUAAAUAUUGUUAGUCUUAGACAAUAGCUCACAUUUUUUGAGAAGCAUGCCCUCCCUGUCCAUUUGUCUUACAAUAACACUCAG,376 ratio
AGAAUCUUGGGACUGUUUUACUUAAUUGGUCAUUGAUAGCUUAACAAACAUGGAGAUAAGAUUAGAAAUCUUGACAUCAACAGGUAUUAAGCAGAAAAAACCCUGGCCACGUGUCUCCUG,0.129 ratio
AGAGAUAAGACAUCCAGGAACAUGCGAGGCUCCCGGAUGAAUGGACUGCCUAGCCCCACUCACAGCGCCCACUGUAGCUUCUACCGAACCAGAACCUUGCAGGCACUAAGUAAUGAGAAG,0.156 ratio
UAAGUCCUGUGCCAGCACUUCGCUCAUAAAGUUUUAAAUUCUGGACCAAUAGUGUUUAUCUUUAGAAUUUUGUAUUCAAUACUUUGCCUAGUAUGUAACUCACUCUUACUGAUAAUAAAA,6.68 ratio
UUUGUAUUUAUGCUAAGCACACGUGCUGGUGGUCUGGGCAUCAAUCUUGCGACUGCUGAUGUAGUCAUUUUAUAUGACUCAGAUUGGAAUCCGCAAGUAGAUCUUCAGGCUAUGGACCGU,0.104 ratio
CACGUGUCUGCAGUACUUGAUGUGGACUACUCUCCCACUGGGAAGGAAUUUGUGUCUGCCAGCUUUGAUAAAUCUAUUAGAAUCUUUCCUGUAGACAAGAGCCGAAGCAGGGAAGUGUAU,0.425 ratio
CUGAAAAACACAGAUAUCAAAGUUGUUGACUUUGGAAGUGCAACGUAUGAUGAUGAACAUCACAGUACUUUGGUGUCCACAAGGCACUACAGAGCUCCCGAGGUCAUUUUGGCUUUAGGU,0.282 ratio
GGGACUGAUUCAUUCCAAGGACAGGCCGCCCAGUCUGAUGCCUGGACUGAUGACAGUAUGGAAGGGCCUAGUCAAAAUGUUGAAGCUGAGUCAAUUCAGGAUGCCAUGAGUAUGGAAGAG,0.302 ratio
